Published values collected from several papers.
Each numbered part is a random draw from the data of one study; scales do not carry over between parts. Substitutions count along the parent as printed.
Chain of UniProt P30291 (whole entry, looked up): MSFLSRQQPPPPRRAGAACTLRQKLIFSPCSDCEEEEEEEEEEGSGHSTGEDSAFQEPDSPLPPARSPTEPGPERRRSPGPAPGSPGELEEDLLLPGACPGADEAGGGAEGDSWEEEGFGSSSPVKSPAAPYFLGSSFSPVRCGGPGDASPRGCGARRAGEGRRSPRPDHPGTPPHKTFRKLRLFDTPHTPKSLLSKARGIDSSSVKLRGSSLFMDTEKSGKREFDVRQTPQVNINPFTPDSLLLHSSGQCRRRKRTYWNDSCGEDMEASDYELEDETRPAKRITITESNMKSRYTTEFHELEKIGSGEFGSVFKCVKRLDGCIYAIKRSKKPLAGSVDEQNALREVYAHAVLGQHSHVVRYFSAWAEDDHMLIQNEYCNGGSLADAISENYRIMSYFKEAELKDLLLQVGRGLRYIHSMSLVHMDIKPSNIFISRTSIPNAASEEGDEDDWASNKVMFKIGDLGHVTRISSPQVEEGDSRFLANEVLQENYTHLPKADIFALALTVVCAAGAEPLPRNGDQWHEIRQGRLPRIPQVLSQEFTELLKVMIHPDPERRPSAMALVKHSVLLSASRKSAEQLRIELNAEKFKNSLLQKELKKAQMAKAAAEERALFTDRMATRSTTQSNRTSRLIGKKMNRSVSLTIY
Chain of UniProt Q9HC98 (whole entry, looked up): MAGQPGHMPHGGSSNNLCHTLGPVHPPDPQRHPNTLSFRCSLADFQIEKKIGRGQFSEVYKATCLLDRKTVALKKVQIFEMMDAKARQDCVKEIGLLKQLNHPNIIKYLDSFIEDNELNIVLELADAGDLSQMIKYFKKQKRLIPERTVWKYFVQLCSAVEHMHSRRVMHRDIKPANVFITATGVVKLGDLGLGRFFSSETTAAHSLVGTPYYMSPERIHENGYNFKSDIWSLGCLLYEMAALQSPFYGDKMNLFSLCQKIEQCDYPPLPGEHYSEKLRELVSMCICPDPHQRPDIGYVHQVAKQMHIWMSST
Chain of UniProt Q15349 (whole entry, looked up): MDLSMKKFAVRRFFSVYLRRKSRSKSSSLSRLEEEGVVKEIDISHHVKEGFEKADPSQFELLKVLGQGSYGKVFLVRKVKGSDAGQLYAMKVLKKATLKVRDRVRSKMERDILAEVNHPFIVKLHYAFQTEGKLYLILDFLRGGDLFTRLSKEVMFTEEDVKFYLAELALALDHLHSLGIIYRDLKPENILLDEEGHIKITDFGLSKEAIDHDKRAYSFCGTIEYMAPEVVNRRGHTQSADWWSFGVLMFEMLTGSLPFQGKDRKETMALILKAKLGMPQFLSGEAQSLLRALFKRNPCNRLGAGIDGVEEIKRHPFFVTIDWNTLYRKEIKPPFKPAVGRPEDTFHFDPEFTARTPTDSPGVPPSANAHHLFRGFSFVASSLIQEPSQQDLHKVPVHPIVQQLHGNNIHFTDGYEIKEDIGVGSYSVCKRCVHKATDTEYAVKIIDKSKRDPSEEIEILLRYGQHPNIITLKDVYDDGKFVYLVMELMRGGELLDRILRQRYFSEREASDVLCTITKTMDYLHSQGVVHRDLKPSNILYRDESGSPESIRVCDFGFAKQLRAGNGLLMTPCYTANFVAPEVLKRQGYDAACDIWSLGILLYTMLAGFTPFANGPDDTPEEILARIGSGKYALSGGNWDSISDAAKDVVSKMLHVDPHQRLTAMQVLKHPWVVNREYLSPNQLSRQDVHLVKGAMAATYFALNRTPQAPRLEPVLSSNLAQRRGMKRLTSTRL
Chain of UniProt Q13554 (whole entry, looked up): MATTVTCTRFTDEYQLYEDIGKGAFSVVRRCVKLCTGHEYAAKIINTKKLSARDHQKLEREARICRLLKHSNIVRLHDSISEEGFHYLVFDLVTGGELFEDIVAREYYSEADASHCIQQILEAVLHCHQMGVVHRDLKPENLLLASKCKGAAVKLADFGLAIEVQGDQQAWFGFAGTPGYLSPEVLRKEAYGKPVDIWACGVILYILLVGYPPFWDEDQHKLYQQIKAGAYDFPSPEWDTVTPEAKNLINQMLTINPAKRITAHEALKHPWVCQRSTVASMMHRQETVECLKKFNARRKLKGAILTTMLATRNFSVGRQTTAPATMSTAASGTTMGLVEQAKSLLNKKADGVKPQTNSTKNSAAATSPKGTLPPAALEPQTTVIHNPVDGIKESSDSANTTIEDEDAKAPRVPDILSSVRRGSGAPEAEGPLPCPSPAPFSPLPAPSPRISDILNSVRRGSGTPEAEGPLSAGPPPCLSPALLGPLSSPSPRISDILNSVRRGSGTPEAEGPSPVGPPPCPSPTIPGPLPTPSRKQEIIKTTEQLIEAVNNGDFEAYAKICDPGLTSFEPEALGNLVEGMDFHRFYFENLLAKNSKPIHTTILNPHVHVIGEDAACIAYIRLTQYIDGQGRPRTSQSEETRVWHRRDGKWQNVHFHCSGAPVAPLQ
Chain of UniProt Q9UL54 (whole entry, looked up): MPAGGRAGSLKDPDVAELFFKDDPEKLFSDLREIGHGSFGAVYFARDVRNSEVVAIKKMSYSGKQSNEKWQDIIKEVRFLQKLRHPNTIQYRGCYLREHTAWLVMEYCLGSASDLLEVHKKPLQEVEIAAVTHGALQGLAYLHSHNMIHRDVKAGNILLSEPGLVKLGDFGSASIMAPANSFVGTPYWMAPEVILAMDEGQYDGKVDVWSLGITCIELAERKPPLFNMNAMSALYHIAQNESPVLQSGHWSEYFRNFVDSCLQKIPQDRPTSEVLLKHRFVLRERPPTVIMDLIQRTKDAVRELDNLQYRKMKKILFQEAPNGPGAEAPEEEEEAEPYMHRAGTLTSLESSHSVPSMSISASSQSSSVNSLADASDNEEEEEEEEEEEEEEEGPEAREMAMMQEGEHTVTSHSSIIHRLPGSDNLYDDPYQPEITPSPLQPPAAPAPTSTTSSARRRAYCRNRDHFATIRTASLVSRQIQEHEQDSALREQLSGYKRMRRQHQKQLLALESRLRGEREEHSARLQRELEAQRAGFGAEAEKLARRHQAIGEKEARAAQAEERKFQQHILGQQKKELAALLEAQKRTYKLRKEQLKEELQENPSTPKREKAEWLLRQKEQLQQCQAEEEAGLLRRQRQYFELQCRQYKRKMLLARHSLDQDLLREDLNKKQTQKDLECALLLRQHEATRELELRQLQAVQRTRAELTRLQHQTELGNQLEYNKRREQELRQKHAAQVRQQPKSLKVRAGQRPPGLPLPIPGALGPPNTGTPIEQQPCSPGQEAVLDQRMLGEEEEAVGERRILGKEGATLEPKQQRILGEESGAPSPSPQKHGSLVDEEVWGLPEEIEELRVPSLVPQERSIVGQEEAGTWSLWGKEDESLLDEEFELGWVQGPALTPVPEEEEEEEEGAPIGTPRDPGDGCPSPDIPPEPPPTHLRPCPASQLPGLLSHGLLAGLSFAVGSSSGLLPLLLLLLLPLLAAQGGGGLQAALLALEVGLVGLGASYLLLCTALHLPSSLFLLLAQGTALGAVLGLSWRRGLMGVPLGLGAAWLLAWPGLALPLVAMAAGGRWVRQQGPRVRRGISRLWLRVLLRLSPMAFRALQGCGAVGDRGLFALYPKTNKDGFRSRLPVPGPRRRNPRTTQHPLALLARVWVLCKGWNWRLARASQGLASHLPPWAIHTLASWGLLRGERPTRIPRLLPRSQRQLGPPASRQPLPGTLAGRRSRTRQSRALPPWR

Sample 1 — method: RNA Bind-n-Seq; molecule type: RNA; medium: in vitro; tested at: not given; setting: RNA with constant flanks, ends assumed; relative to: input RNA pool; reading: higher = stronger binding
Target: RING finger protein unkempt homolog, zinc fingers 1-6, GST-SBP tag (UNK, Homo sapiens, UniProt Q9C0B0, residues 30-357)
Chain of UniProt Q9C0B0 (30-357, looked up): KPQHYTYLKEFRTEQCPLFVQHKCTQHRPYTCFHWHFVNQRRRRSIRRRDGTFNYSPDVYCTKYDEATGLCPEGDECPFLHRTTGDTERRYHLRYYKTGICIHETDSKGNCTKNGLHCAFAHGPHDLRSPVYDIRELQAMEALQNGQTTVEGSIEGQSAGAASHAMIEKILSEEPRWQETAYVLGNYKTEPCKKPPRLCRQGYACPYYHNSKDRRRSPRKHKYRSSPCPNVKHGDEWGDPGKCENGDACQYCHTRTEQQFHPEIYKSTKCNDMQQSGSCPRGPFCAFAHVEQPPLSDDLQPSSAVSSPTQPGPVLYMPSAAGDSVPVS
All sequences stand within: GGGAGUUCUACAGUCCGACGAUC … CAACAGAGGAUUGAGCAUCA
Oligonucleotide	bound/input enrichment [ratio]
CUUCUAAGUCGUGUCACUCUUCUAGAAACGGAGAUGCUGUUGUCCAAAAAGAGUGAAUCUGCCGAGCGUAAUGUGGCAAGUCAAGACUGUGAGUCAAUUAGUGAUGUGGACUUUGUACCC	0.376
AUAUGAUCUUCUGCUCUUCCCAGGUCCCUUUCUCCCGCUCCCCCACUUGCCCUUUGCUGGCCGCCGCCAUGCUCCUGUGCUCCUCAUCCGUGGGGACAGGGCUUGGAGCAGUCACCCUUU	0.208
AUUGUAUAUUAUGAACAGCUGACUAAACAUAAUCACCACAGAAUAAGACAAUAUCAUAUAACCGAUUAAAAUGUUGUGCAUCCUUUUGUCUGGUUAAAAAUUUUUUAAAAAAACUUCAAU	0.901
CUUUAAGUCUUUGAGAGGGGCCUGAAGAGCCUCCGGGCUCCUGGGACAUUGAUGUAGAGUUUUCCGUGAAGUGGGCACCUUUCUAGUCCACGGCAUUUGAAGAGAGCGAGGAGAACCAUU	0.268
CAAGCCAGUCCUGUUGUGAUUUGUCCAUCGAGUGUGUGUGUGUGUGUGUGUGACCAUCAGUUCCGCCCAGAGUGGACAGGGUCCAGGCAUACCCACCCUGGCCCAUGCUCCUCUAGGACA	0.14
AUGACCCUUGGACAGCAGGACGUUUCCAAAGUCCUGCUGGGACCACUCUCACCCUACACGACCGAAUUUUUGCGGCAUCUGAAGAGCUUUUUCCAGGUUAUGUUUAAAGUUGAAACCAAG	0.231
GGUUUGGUGUUUGGUUUUUGUUUGUUUGUUUUACUUUUUAAAUACAACACGUACAGUUUCAUCCGCCCCAGGCCUUGUCAUCCUGUGUUCAUUCAAAUUGAGAUACAAUCUAAAAUUCAU	0.123
CUCCUGGCCAGACGCUGCCGCUGCCGCUGCACCACGGCGUUUUUUUACAACAUUCAACUUCCGUAUUUUUACUAUUAUAAUAUAAUAUGGAACCUUCCCUCCAAAUUCUUCAAUAAAAGU	1.05

Sample 2 — effect on: enzyme activity; action: inhibitor; tested at: 0.5 µM; relative to: control
Structure (SMILES): O=C1NC(=O)C(c2cn(CCCO)c3ncccc23)=C1c1cnccn1
target	remaining activity [%]
Wee1-like protein kinase (WEE1, Homo sapiens, UniProt P30291)	96.2
Ribosomal protein S6 kinase alpha-2 (RPS6KA2, Homo sapiens, UniProt Q15349)	73.2
Tyrosine-protein kinase FRK (FRK, Homo sapiens, UniProt P42685)	88.3
Serine/threonine-protein kinase TAO2 (TAOK2, Homo sapiens, UniProt Q9UL54)	88.1
Angiopoietin-1 receptor (TEK, Homo sapiens, UniProt Q02763)	103
Serine/threonine-protein kinase Nek6 (NEK6, Homo sapiens, UniProt Q9HC98)	94.2
Tyrosine-protein kinase Mer (MERTK, Homo sapiens, UniProt Q12866)	78.7
Mitogen-activated protein kinase kinase kinase 5 (MAP3K5, Homo sapiens, UniProt Q99683)	88.9

Sample 3 — tested at: 0.1 µM
Structure (SMILES): C[C@@H]1CN(c2cc(-c3n[nH]c4ccc(OC5(C)CC5)cc34)ncn2)C[C@H](C)O1
target	test	remaining binding
Serine/threonine-protein kinase Nek4 (NEK4, Homo sapiens, UniProt P51957)	cell-free assay, competition with immobilised ligand	84%
Tyrosine-protein kinase ABL1, phosphorylated (ABL1, Homo sapiens, UniProt P00519, F317I)	binding	80%
Cyclin-dependent kinase 18 (CDK18, Homo sapiens, UniProt Q07002)	cell-free assay, competition with immobilised ligand	100%
Calcium/calmodulin-dependent protein kinase type 1G (CAMK1G, Homo sapiens, UniProt Q96NX5)	cell-free assay, competition with immobilised ligand	91%
Calcium/calmodulin-dependent protein kinase type II subunit beta (CAMK2B, Homo sapiens, UniProt Q13554)	cell-free assay, competition with immobilised ligand	100%
Receptor-type tyrosine-protein kinase FLT3 (FLT3, Homo sapiens, UniProt P36888, F691L/ITD)	cell-free assay, competition with immobilised ligand	69%

Sample 4 — target: CCND3, cyclin fold, Cln2 fusion (human); method: yeast growth competition, sequencing; medium: yeast; setting: weak parent motif; relative to: not given; reading: higher = stronger binding
Starting sequence: MASTL docking peptide (human); PMIAKNLMCELDE; partner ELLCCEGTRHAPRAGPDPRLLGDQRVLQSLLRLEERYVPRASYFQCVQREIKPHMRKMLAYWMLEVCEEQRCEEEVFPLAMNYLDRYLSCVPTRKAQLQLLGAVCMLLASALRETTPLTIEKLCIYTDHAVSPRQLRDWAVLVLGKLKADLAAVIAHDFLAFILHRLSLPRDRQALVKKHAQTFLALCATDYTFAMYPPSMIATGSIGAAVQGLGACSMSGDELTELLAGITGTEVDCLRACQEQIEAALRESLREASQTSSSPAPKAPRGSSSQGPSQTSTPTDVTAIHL
Variant	normalised enrichment score
K5N	0.0778
N6H	-0.153
L7T	-0.293
I3S	0.0563
A4T	0.0625
E10Q	0.264
L11C	-0.0176
A4I	0.161

For quick reference, copied from above (sample 3):
target	test	remaining binding
Receptor-type tyrosine-protein kinase FLT3 (FLT3, Homo sapiens, UniProt P36888, F691L/ITD)	cell-free assay, competition with immobilised ligand	69%
Cyclin-dependent kinase 18 (CDK18, Homo sapiens, UniProt Q07002)	cell-free assay, competition with immobilised ligand	100%
